# Experimental data pooled from the literature.
# Each line is one published result; not all experiments were run side by side. ± marks the error that the study gave.
SMILES,target or system,test,system,setting,scale,quantity,value
CCc1cc(C(=O)NC)c2nccc(N3CCc4c(cc(Cn5ccnc5)cc4-c4cn(C)nc4C(F)(F)F)C3=O)c2c1,,,Sprague Dawley rats,"oral, 100 mg/kg twice daily, 7 days",baseline: vehicle,cholesterol change,-7.7%
Cc1cc(O)c2c(c1)C(=O)c1cccc(O)c1C2=O,HepaRG co-cultured with HK-2,MTT,,"133.33 µM, 48 h",baseline: untreated control,cell viability,57.4 ± 10.4%
C=C1C(=O)O[C@@H]2C[C@@]3(C)CCCC(=C)[C@@H]3C[C@H]12,COS-7,,,"10 µM, 24 h, 0.1% DMSO, unit not given",baseline: vehicle control,necrotic cells,0.36 ± 0.11
COc1cc2ncnc(Nc3ccc(Oc4ccccc4)cc3C)c2cc1OC.O=C(O)C(F)(F)F,COLO 205 (BRAF V600E),resazurin,,"3 µM, 72 h, with: trametinib 0 nM",,viability,0.621 fraction of control
COc1cccc(-c2ccc(NC(=O)C3=C(C(=O)O)CCC3)c(F)c2)c1,COS-7,,,"3 µM, 24 h, 0.1% DMSO, unit not given",baseline: vehicle control,apoptotic cells,0.71 ± 0.14
COc1cc2c(c(O)c1OC)C(=O)c1c(cc(C)c(O)c1OC)C2=O,HepaRG co-cultured with HK-2,MTT,,"33.33 µM, 24 h",baseline: untreated control,cell viability,75.4 ± 12.5%
CC(C)[C@H](C(=O)Nc1ccc(C(=O)NO)cc1)c1ccccc1,OCI-Ly1,,,"0.5 µM, 120 h",,viability,27.4%
Cc1cc(C(=O)NC(C)(C)COc2cccc3c2C(N)=NS(=O)(=O)N3)cc(C)n1,human peripheral blood lymphocytes,in vitro micronucleus test,0.2% DMSO,"500 µg/mL, 24 h",,micronucleated binucleated cells,0.2%
COc1cc2ncnc(Nc3ccc(Oc4ccccc4)c(C)c3C)c2cc1OC.Cl,COLO 205 (BRAF V600E),resazurin,,"0.1 µM, 72 h, unit not given, with: trametinib",baseline: DMSO,viability,0.859
O=C(O)c1cc(O)c2c(c1)C(=O)c1cccc(O)c1C2=O,HepaRG co-cultured with HK-2,MTT,,"66.67 µM, 24 h",baseline: untreated control,cell viability,75.6 ± 4.2%
COc1cc2c(NC3CCN(C4CCCCC4)CC3)nc(N3CCCN(C(C)C)CC3)nc2cc1OCCCN1CCCCC1,OCI-Ly1,,,"0.1 µM, 120 h",,viability,193%
CN1C(C(=O)Nc2ccccn2)=C(O)c2sc(Cl)cc2S1(=O)=O,COS-7,WST-8,,"100 µM, 24 h, 0.1% DMSO, unit not given",baseline: control,metabolic activity,0.96 ± 0.03
